{"data": "Assay results pooled from the literature", "note": "Every numbered part comes from another study and shows a few of its results, in no order."}
{"data": "Block 1", "target": "Replicase polyprotein 1ab, nsp13 helicase (rep, Severe acute respiratory syndrome coronavirus 2, UniProt P0DTD1)", "effect on": "helicase ATPase activity", "organism": "SARS-CoV-2", "tested at": "20 µM"}
{"SMILES": "Cc1ccc(-n2sc(=O)n(Cc3ccc(F)cc3)c2=O)cc1", "inhibition": "107%"}
{"SMILES": "CN=c1nc(-c2ccccc2)n(-c2ccccc2)s1", "inhibition": "107%"}
{"SMILES": "CCC(=O)OCN1C(=O)C=CC1=O", "inhibition": "107%"}
{"SMILES": "O=C(Nc1ccc2c(O)cc(S(=O)(=O)[O-])cc2c1)Nc1ccc2c(O)cc(S(=O)(=O)[O-])cc2c1.[Na+].[Na+]", "inhibition": "57.5%"}
{"SMILES": "CO/N=C(\\C(=O)N[C@@H]1C(=O)N2C(C(=O)O)=C(CSC(=O)c3ccco3)CS[C@H]12)c1csc(N)n1", "inhibition": "102%"}
{"SMILES": "O=C(O)c1ccc(SSc2ccc(C(=O)O)cn2)nc1", "inhibition": "106%"}
{"SMILES": "N#CSc1cc(SC#N)c(N)nc1N", "inhibition": "106%"}
{"SMILES": "O=Nc1ccc(O)c2ncccc12", "inhibition": "103%"}
{"data": "Block 2", "cell line": "HEK-293T", "effect on": "pseudovirus infection", "technique": "FDA-approved drug library screen", "organism": "VSV pseudotyped with SARS-CoV-2 spike", "tested at": "10 µM", "time": "16 h", "baseline": "vehicle-treated"}
{"Compound": "NC[C@H]1O[C@H](O[C@H]2[C@H](O)[C@@H](O[C@H]3O[C@H](CO)[C@@H](O)[C@H](N)[C@H]3O)[C@H](N)C[C@@H]2N)[C@H](N)C[C@@H]1O", "GFP-positive cells [%]": 86}
{"Compound": "C[C@]12CC[C@H]3[C@@H](CCC4=CC(=O)CC[C@@]43C)[C@@H]1CC[C@@H]2O", "GFP-positive cells [%]": 107}
{"Compound": "CC(CCc1ccccc1)NCC(O)c1ccc(O)c(C(N)=O)c1 (stereo not shown)", "GFP-positive cells [%]": 94.9}
{"Compound": "COc1c(C)c2c(c(O)c1C/C=C(\\C)CCC(=O)OCCN1CCOCC1)C(=O)OC2", "GFP-positive cells [%]": 3.41}
{"data": "Block 3", "target": "Replicase polyprotein 1ab, main protease (rep, Severe acute respiratory syndrome coronavirus 2, UniProt P0DTD1)", "effect on": "enzyme activity", "action": "inhibitor", "tested at": "20 µM", "notes": "primary screen"}
{"Structure (SMILES)": "CCC[C@H](NC(=O)/C(C#N)=C/c1cccc(Br)n1)c1ccccc1", "inhibition": "55.6%"}
{"Structure (SMILES)": "COc1oc(=O)c2cc(N)ccc2c1Cl", "inhibition": "45.3%"}
{"Structure (SMILES)": "Nc1nc(=S)c2ncn(C3OC(CO)C(O)C3O)c2[nH]1 (stereo not shown)", "inhibition": "102%"}
{"data": "Mixed results"}
{"Compound": "CC[C@H](C)[C@H](NC(=O)[C@H](CC(C)C)NC(=O)[C@H](Cc1c[nH]c2ccccc12)NC(=O)[C@H](CCC(N)=O)NC(=O)[C@@H](NC(=O)[C@H](Cc1ccccc1)NC(=O)[C@H](C)NC(=O)[C@H](CCCCNC(=O)COCCOCCNC(=O)COCCOCCNC(=O)CC[C@H](NC(=O)CCCCCCCCCCCCCCCCCCC(=O)O)C(=O)O)NC(=O)[C@H](CCC(N)=O)NC(=O)[C@H](C)NC(=O)[C@@H](NC(=O)[C@H](CCCCN)NC(=O)[C@H](CC(=O)O)NC(=O)[C@H](CC(C)C)NC(=O)C(C)(C)NC(=O)[C@@H](NC(=O)[C@H](CO)NC(=O)[C@H](Cc1ccc(O)cc1)NC(=O)[C@H](CC(=O)O)NC(=O)[C@H](CO)NC(=O)[C@@H](NC(=O)[C@H](Cc1ccccc1)NC(=O)[C@@H](NC(=O)CNC(=O)[C@H](CCC(=O)O)NC(=O)C(C)(C)NC(=O)[C@@H](N)Cc1ccc(O)cc1)[C@@H](C)O)[C@@H](C)O)[C@@H](C)CC)[C@@H](C)CC)C(C)C)C(=O)N[C@@H](C)C(=O)NCC(=O)NCC(=O)N1CCC[C@H]1C(=O)N[C@@H](CO)C(=O)N[C@@H](CO)C(=O)NCC(=O)N[C@@H](C)C(=O)N1CCC[C@H]1C(=O)N1CCC[C@H]1C(=O)N1CCC[C@H]1C(=O)N[C@@H](CO)C(N)=O", "species": "patients with type 2 diabetes", "medium": "plasma", "dose": "0.5 mg repeated", "time": "day 22", "notes": "geometric mean", "endpoint": "apparent volume of distribution (Vz/F)", "result": "10.4 L"}
{"note": "A few entries again (block 2):"}
{"Compound": "NC[C@H]1O[C@H](O[C@H]2[C@H](O)[C@@H](O[C@H]3O[C@H](CO)[C@@H](O)[C@H](N)[C@H]3O)[C@H](N)C[C@@H]2N)[C@H](N)C[C@@H]1O", "GFP-positive cells [%]": 86}
{"Compound": "C[C@]12CC[C@H]3[C@@H](CCC4=CC(=O)CC[C@@]43C)[C@@H]1CC[C@@H]2O", "GFP-positive cells [%]": 107}
